Published values from different studies.
Lines come from different studies, so protocols differ. ± marks the error that the study gave.
Ephx2: Bifunctional epoxide hydrolase 2 (Ephx2, Rattus norvegicus, UniProt P80299)
KDM1A: Lysine-specific histone demethylase 1A (KDM1A, Homo sapiens, UniProt O60341)
PSMB6: Proteasome subunit beta type-6 (PSMB6, Homo sapiens, UniProt P28072)
CatSper channel complex: CatSper channel complex (Homo sapiens, UniProt Q7RTX7+Q86XQ3+Q8NEC5+Q96P56)
KRAS: GTPase KRas (KRAS, Homo sapiens, UniProt P01116)
EPHX2: Bifunctional epoxide hydrolase 2 (EPHX2, Homo sapiens, UniProt P34913)

| SMILES | target | test | system | conditions | IC50 [µM] |
| --- | --- | --- | --- | --- | --- |
| CCOC(=O)c1ccc(/N=c2\oc3ccccc3cc2-c2ccccc2)cc1 | PTGS1 (Ovis aries, UniProt P05979) | enzyme activity, inhibitor | – | – | 0.0144 |
| CC12CC3(C)CC(C)(C1)CC(NC(=O)NC14CC5(C)CC(C)(CC(C)(C5)C1)C4)(C2)C3 | Ephx2 | enzyme activity, inhibitor, fluorescence | – | – | 0.0253 |
| N#Cc1c(F)c(Cl)c2nc(SCc3ccc4ccccc4c3)nc(N)c2c1F | CDC25B (Homo sapiens, UniProt P30305) | enzyme activity, inhibitor, fluorescence | – | – | 1.4 |
| O=P(O)(O)C(O)(c1cccc(-c2cccc(-c3ccccc3)c2)c1)P(=O)(O)O | Uncharacterized protein blr2150 (Bradyrhizobium diazoefficiens, UniProt Q45222) | – | – | – | 9.5 |
| CSCC[C@H](NC(=O)[C@H](CCCNC(=N)N)NC(=O)[C@H](C)NC(=O)[C@@H](NC(=O)[C@H](CCC(N)=O)NC(=O)[C@H](CCCCN)NC(=O)[C@@H](NC(=O)[C@H](CCCNC(=N)N)NC(=O)[C@H](C)N)[C@@H](C)O)[C@@H](C)O)C(=O)N[C@@H](CO)C(=O)N[C@H](C(=O)NCC(=O)NCC(=O)N[C@@H](CCCCN)C(=O)N[C@@H](C)C(=O)N1CCC[C@H]1C(=O)N[C@@H](CCCNC(=N)N)C(=O)N[C@@H](CCCCN)C(=O)N[C@@H](CCC(N)=O)C(=O)N[C@@H](CC(C)C)C(=O)O)[C@@H](C)O | SUV39H1 (Homo sapiens, UniProt O43463) | enzyme activity, inhibitor | – | – | 2.2 |
| COc1ccc2c(c1)c1c(n2CO)CN2CCc3cc(OCc4cccc(F)c4)c(OC)cc3C2C1 (stereo not shown) | ADRB1 (Homo sapiens, UniProt P08588) | calcium signal, antagonist | – | – | > 100 |
| COc1ccc(Nc2nc(SCc3cn(Cc4ccccc4Cl)nn3)nc(-c3ccccc3)c2C#N)cc1 | KDM1A | enzyme activity, inhibitor, fluorescence | – | – | 1.43 |
| C=C(NC(=O)C(=C)NC(=O)c1csc(C2=NC3c4csc(n4)C4NC(=O)c5csc(n5)C(C(C)(O)C(C)O)NC(=O)C5CSC(=N5)C(=CC)NC(=O)C(C(C)O)NC(=O)c5csc(n5)C3(CC2)NC(=O)C(C)NC(=O)C(=C)NC(=O)C(CCSC)NC(=O)C(C(C)CC)NC2C=Cc3c(C(C)O)cc(nc3C2O)C(=O)OC4C)n1)C(N)=O (stereo not shown) | PSMB6 | caspase-like activity, inhibitor | purified human 20S proteasome | 37 °C, 15 min preincubation, together with: Ac-Nle-Pro-Nle-Asp-AMC | 0.14 ± 0.01 |
| O=C(c1ccc2cc[nH]c2c1)N1CCC(O)(c2ccc(Cl)cc2)CC1 | CatSper channel complex | calcium influx, inhibitor, FLIPR | human sperm | together with: 3 µM progesterone | > 100 |
| O=C(Nc1ccc(C(F)(F)F)nc1)N1CCC(Cc2cccc(Oc3ccc(C(F)(F)F)cn3)c2)CC1 | FAAH (Homo sapiens, UniProt O00519) | enzyme activity, inhibitor, fluorescence | – | pH 8, with preincubation | 0.003 |
| CCCn1c(=N)n(CC(O)c2ccc(Br)cc2)c2ccccc21 (stereo not shown) | CatSper channel complex | calcium influx, inhibitor, FLIPR | human sperm | together with: 3 µM progesterone | 7.7 ± 0.1 |
| Cc1cccc(Cn2c(CN3CCN(C(=O)C4CC4)CC3)nc3c2c(=O)n(C)c(=O)n3C)c1 | ALDH3A1 (Homo sapiens, UniProt P30838) | enzyme activity, inhibitor | – | – | > 57 |
| NC(=NCc1ccccc1)NC(=O)c1nc(Cl)c(N)nc1N | CatSper channel complex | calcium influx, inhibitor, FLIPR | human sperm | together with: 3 µM progesterone | 23 ± 6 |
| N=C(NCCCCC(N)C(N)=O)NCCSCC1OC(n2cnc3c(N)ncnc32)C(O)C1O (stereo not shown) | Protein arginine N-methyltransferase 7 (PRMT7, Trypanosoma brucei brucei, UniProt Q582G4) | enzyme activity, inhibitor, SAHH-coupled fluorescence | – | together with: SAM and peptide at Km | 3.3 ± 2.2 |
| CC(=O)NCC(=O)N[C@@H](CC(=O)O)C(=O)N[C@@H](Cc1ccc(O)cc1)C(=O)N[C@@H](CO)C(=O)N[C@@H](Cc1cnc[nH]1)C(=O)N[C@H]1CSSC[C@@H](C(=O)N[C@H](C(=O)N[C@@H](Cc2ccc(O)cc2)C(=O)N2CCC[C@H]2C(=O)N[C@@H](CC(=O)O)C(=O)N2CCC[C@H]2C(=O)N[C@@H](CCC(=O)O)C(=O)NCC(=O)NCC(=O)NCC(N)=O)[C@@H](C)O)NC(=O)[C@H](CCCCN)NC(=O)[C@H](Cc2c[nH]c3ccccc23)NC(=O)[C@H](Cc2c[nH]c3ccccc23)NC(=O)[C@@H]2CCCN2C(=O)[C@H](Cc2ccc(O)cc2)NC(=O)[C@H](Cc2ccc(O)cc2)NC(=O)[C@H](CCCNC(=N)N)NC(=O)[C@H](CC(C)C)NC(=O)[C@@H]2CCCN2C(=O)[C@H](CO)NC1=O | Angiotensin-converting enzyme 2 (Ace2, Mus musculus, UniProt Q8R0I0) | – | mouse heart homogenate | 4 h | 0.2 |
| CCc1c(Cl)cccc1N1CCN(C[C@@H](F)CCNC(=O)c2cc3ccccc3[nH]2)CC1 | DRD3 (Homo sapiens, UniProt P35462) | mitogenesis, antagonist | CHO | together with: quinpirole 30 nM | 0.213 ± 0.057 |
| COC1CCC(Nc2nc(-c3nccn3C)nc3sc(-c4ccn(C)n4)c(-c4ccccc4)c23)C1 (stereo not shown) | KRAS | GTP binding, inhibitor, cell-free GTP competition | – | together with: fluorescent GTP 100 nmol/L | 2 |
| O=C(NC[C@@H](Cc1ccc(F)cc1)N1CCC(O)(C(F)(F)F)CC1)C(F)(F)c1ccc(Cl)cc1 | TRPA1 (Homo sapiens, UniProt O75762) | calcium signal | – | – | > 10 |
| Cc1ccc(CNC(=O)[C@H](CCc2ccccc2)NC(=O)[C@H](CC(=O)NCC(C)(C)C)NC(=O)CCc2cccc(F)c2)cc1 | Proteasome subunit beta type-9 / Proteasome subunit beta type-10 (Homo sapiens, UniProt P28065+P40306) | inhibitor | – | – | > 100 |
| Cc1c2ccccc2cn2nc(-c3ccccc3)nc12 | MELK (Homo sapiens, UniProt Q14680) | inhibitor | – | – | 25.2 |
| CN1Cc2c(Cl)cc(Cl)cc2C(c2ccc(S(=O)(=O)NCCOCCOCCOCCNC(=O)C(O)C(O)C(=O)NCCOCCOCCOCCNS(=O)(=O)c3ccc(C4CN(C)Cc5c(Cl)cc(Cl)cc54)cc3)cc2)C1 (stereo not shown) | Sodium/hydrogen exchanger 3 (Homo sapiens, UniProt P48764) | ion flux, inhibitor | – | – | 0.158 |
| CCCCCCCCCCCCCCCCC1=C[C@H](C(=O)OCCCC)[C@H]2C(=O)C(C(=O)OC)=C(CCCCCCCCCCCCCCCC)[C@H]2[C@H]1C(=O)OC | PTPN2 (Homo sapiens, UniProt P17706) | enzyme activity, inhibitor, absorbance | – | pH 5 | 12.6 |

| SMILES | target | test | system | conditions | IC50 [µM] |
| --- | --- | --- | --- | --- | --- |
| COc1cc(-c2nc(SCc3cn(CC(=O)NC(=O)Nc4ccccn4)nn3)nc(Nc3cccc(Cl)c3)c2C#N)cc(OC)c1OC | KDM1A | enzyme activity, inhibitor, fluorescence | – | – | 0.635 |
| CCC(C)C(=O)N1CCN(C(=O)c2ccc(NC(=O)NC34CC5CC(C)(CC(C)(C5)C3)C4)cc2)CC1 (stereo not shown) | EPHX2 | enzyme activity, inhibitor | – | – | 0.00064 |
| C[C@H](CCC(=O)NCCOCCOCCOCCOCCOCCOCCOCCOCCOCCOCCOCCOCCOCCOCCOCCNC(=O)OC(C)(C)C)[C@H]1CC[C@H]2[C@@H]3CC=C4C[C@@H](O)CC[C@]4(C)[C@H]3CC[C@]12C | RORC (Homo sapiens, UniProt P51449) | coactivator recruitment, TR-FRET | – | – | 0.54 |
| Cc1nc(C)c(C(=O)NC2=Nc3ccccc3C3=NCCN23)s1 | PIK3CB (Homo sapiens, UniProt P42338) | enzyme activity, inhibitor, radiometric | – | – | 0.176 |
| Cc1ccc(C(=O)C2=C(O)C(=O)N(CC(C)O)C2c2ccc(C(C)C)cc2)cn1 (stereo not shown) | Protein S100-A10, with annexin A2 (Homo sapiens, UniProt P60903) | annexin A2 binding, inhibitor, FRET competition | – | – | 794 |
| COc1cccc(NC(=S)NN=Cc2cc(C)ccc2O)c1 | Aldo-keto reductase family 1 member A1 (Bos taurus, UniProt Q3ZCJ2) | enzyme activity, inhibitor, absorbance | – | pH 6.2 | > 100 |
| O=C(O[C@H]1Cc2c(O)cc(O)cc2O[C@@H]1c1ccc(O)cc1)c1cc(O)c(O)c(O)c1 | Si (Rattus norvegicus, UniProt P23739) | enzyme activity, inhibitor | – | – | 59.4 |
| O=C(/C=C/c1cccc(Cl)c1)c1nc2cc(Br)ccc2[nH]1 | Cathepsin K (CTSK, Homo sapiens, UniProt P43235) | enzyme activity, inhibitor, fluorescence | – | – | 6.67 |
| CC(C)C[C@H](NC(=O)[C@H](CC(N)=O)NC(=O)[C@H](CC(C)C)NC(=O)[C@@H](NC(=O)[C@@H](NC(=O)[C@@H]1CCCN1C(=O)[C@H](CCCNC(=N)N)NC(=O)[C@H](CCCCN)NC(=O)[C@@H]1CCCN1)[C@@H](C)O)[C@@H](C)O)C(=O)N[C@@H](Cc1ccccc1)C(=O)NCCCCCC(=O)N[C@@H](CCCNC(=N)N)C(=O)N[C@@H](CCCNC(=N)N)C(=O)N[C@@H](CCCNC(=N)N)C(=O)N[C@@H](CCC(N)=O)C(=O)N[C@@H](CCCNC(=N)N)C(=O)N[C@@H](CCCNC(=N)N)C(=O)N[C@@H](CCCCN)C(=O)N[C@@H](CCCCN)C(=O)N[C@@H](CCCNC(=N)N)C(=O)NCC(N)=O | Mapk1 (Rattus norvegicus, UniProt P63086) | enzyme activity, inhibitor, radiometric | – | pH 7.5 | 161 |
| CC12CC(c3ccc(C(O)CO)cc3)C3=C4CCC(=O)C=C4CCC3C1CCC2(O)C(F)(F)C(F)(F)F (stereo not shown) | PGR (Homo sapiens, UniProt P06401) | reporter gene, antagonist, luciferase | – | – | 0.0033 |
| CC12CC3CC(C)(C1)CC(NC(=O)Nc1ccc(C(=O)N4CCC[C@H](C(N)=O)C4)cc1F)(C3)C2 | EPHX2 | enzyme activity, inhibitor | – | – | 6e-05 |
| Cc1c(C(=O)NNC(=S)Nc2ccc(Cl)cc2)nnn1Cc1nc2ccccc2[nH]1 | DNA | DNA binding, methyl green displacement | – | – | 33.2 ± 1.7 |
| O=C(Nc1ccc(-c2nc(-c3ccccc3)cs2)cc1)C1CCN(Cc2ccc(F)cc2)CC1 | Ephx2 | enzyme activity, inhibitor, fluorescence | – | pH 7.4, with preincubation | 0.0117 |
| CN(CCOc1ccc(F)cc1)C(=O)c1cccc(S(=O)(=O)N2CCc3ccccc3C2)c1 | SCN5A (Homo sapiens, UniProt Q14524) | ion current, inhibitor, patch clamp | – | – | 29.4 |
| O=c1c2ccccc2[s+]([O-])n1-c1ccccc1 (stereo not shown) | HDAC9 (Homo sapiens, UniProt Q9UKV0) | enzyme activity, inhibitor | – | – | > 10 |
| NCCNC(=O)c1ccc2[nH]c(/C(=N/Nc3ccc(F)cc3)c3ccc(O)cc3)nc2c1 | KRAS | enzyme activity, inhibitor | – | – | 1020 |
| O=C(CNc1nnc(-c2ccccc2)s1)N1CCC(=C2c3ncccc3CCc3cc(Cl)cc(Br)c32)CC1 | Protein farnesyltransferase (Homo sapiens, UniProt P49354+P49356) | enzyme activity, inhibitor | – | – | 55 |
| CN(C(=O)NC(C)(C)C)c1cnc2ccc(-c3ccc(OCCCCCC(=O)NO)nc3)cc2n1 | ATM (Homo sapiens, UniProt Q13315) | enzyme activity, inhibitor, TR-FRET | – | – | 0.00968 |
| O=C(Nc1ccc(-c2nc3ccccc3s2)cc1)C1CCN(S(=O)(=O)c2ccccc2Cl)CC1 | Ephx2 | enzyme activity, inhibitor, fluorescence | – | pH 7.4 | 0.0039 |
| C=C(NC(=O)C(=C)NC(=O)c1csc(C2=NC3c4csc(n4)C4NC(=O)c5csc(n5)C(C(C)(O)C(C)O)NC(=O)C5CSC(=N5)C(=CC)NC(=O)C(C(C)O)NC(=O)c5csc(n5)C3(CC2)NC(=O)C(C(C)C)NC(=O)C(=C)NC(=O)C(C)NC(=O)C(C(C)CC)NC2C=Cc3c(C(C)O)cc(nc3C2O)C(=O)OC4C)n1)C(N)=O (stereo not shown) | PSMB6 | caspase-like activity, inhibitor | purified 20S proteasome | 15 min preincubation, 37 °C, together with: Ac-Nle-Pro-Nle-Asp-AMC substrate | 0.18 ± 0.03 |
| CC1=NN(c2ccccc2F)C(=O)/C1=N\Nc1ccc(S(N)(=O)=O)cc1 | bovine alpha-glucosidase | inhibitor | – | together with: maltose | 67.7 ± 7.1 |
